Published values from different studies.
± marks the error that the study gave. No end group written: not given here. *: point of attachment.
CHRM1: Muscarinic acetylcholine receptor M1 (CHRM1, Homo sapiens, UniProt P11229)
Sequence of UniProt P11229 (whole entry, looked up): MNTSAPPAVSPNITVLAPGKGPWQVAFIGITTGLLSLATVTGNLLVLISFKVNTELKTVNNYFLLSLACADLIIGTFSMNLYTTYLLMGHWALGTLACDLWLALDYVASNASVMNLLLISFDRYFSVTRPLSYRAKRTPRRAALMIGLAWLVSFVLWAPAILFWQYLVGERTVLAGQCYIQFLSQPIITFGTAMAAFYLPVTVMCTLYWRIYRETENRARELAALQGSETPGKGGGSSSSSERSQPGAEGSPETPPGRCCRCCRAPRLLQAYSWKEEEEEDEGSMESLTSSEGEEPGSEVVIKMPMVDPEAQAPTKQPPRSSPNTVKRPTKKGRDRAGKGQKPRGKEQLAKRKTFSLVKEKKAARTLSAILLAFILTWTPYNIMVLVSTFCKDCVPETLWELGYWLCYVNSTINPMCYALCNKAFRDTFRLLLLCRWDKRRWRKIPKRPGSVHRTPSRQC
B1: UGT1A9 (Homo sapiens, UniProt O60656); chain GKLLVVPMDGSHWFTMRSVVEKLILRGHEVVVVMPEVSWQLGRSLNCTVKTYSTSYTLEDLDREFKAFAHAQWKAQVRSIYSLLMGSYNDIFDLFFSNCRSLFKDKKLVEYLKESSFDAVFLDPFDNCGLIVAKYFSLPSVVFARGILCHYLEEGAQCPAPLSYVPRILLGFSDAMTFKERVRNHIMHLEEHLLCHRFFKNALEIASEILQTPVTEYDLYSHTSIWLLRTDFVLDYPKPVMPNMIFIGGINCHQGKPLPMEFEAYINASGEHGIVVFSLGSMVSEIPEKKAMAIADALGKIPQTVLWRYTGTRPSNLANNTILVKWLPQNDLLGHPMTRAFITHAGSHGVYESICNGVPMVMMPLFGDQMDNAKRMETKGAGVTLNVLEMTSEDLENALKAVINDKSYKENIMRLSSLHKDRPVEPLDLAVFWVEFVMRHKGAPHLRPAAHDLTWYQYHSLDVIGFLLAVVLTVAFITFKCCAYGYRKCLGKKGRVKKAHKSKTH
B2: FBXO5 zinc binding region (Homo sapiens); chain SEVAKTLKKNESLKACIRCNSPAKYDCYLQRATCKREGCGFDYCTKCLCNYHTTKDCSDGKLLKASCKIG
Sequence of UniProt P23141 (whole entry, looked up): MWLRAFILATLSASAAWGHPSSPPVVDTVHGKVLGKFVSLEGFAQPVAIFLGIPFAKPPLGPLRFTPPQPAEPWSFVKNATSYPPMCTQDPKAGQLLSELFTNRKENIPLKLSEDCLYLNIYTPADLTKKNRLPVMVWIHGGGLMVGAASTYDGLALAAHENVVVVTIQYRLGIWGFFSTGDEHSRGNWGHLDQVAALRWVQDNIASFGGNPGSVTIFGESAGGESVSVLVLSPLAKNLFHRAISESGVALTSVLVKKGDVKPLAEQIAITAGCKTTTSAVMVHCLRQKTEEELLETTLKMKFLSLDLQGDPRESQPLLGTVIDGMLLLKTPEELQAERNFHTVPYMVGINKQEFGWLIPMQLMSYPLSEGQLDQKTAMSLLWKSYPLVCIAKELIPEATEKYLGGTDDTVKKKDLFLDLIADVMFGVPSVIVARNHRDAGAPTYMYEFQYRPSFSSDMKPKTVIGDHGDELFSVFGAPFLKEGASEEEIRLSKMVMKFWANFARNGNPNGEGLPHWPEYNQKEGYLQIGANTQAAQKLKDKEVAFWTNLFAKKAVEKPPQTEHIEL
Sequence of UniProt O75899 (whole entry, looked up): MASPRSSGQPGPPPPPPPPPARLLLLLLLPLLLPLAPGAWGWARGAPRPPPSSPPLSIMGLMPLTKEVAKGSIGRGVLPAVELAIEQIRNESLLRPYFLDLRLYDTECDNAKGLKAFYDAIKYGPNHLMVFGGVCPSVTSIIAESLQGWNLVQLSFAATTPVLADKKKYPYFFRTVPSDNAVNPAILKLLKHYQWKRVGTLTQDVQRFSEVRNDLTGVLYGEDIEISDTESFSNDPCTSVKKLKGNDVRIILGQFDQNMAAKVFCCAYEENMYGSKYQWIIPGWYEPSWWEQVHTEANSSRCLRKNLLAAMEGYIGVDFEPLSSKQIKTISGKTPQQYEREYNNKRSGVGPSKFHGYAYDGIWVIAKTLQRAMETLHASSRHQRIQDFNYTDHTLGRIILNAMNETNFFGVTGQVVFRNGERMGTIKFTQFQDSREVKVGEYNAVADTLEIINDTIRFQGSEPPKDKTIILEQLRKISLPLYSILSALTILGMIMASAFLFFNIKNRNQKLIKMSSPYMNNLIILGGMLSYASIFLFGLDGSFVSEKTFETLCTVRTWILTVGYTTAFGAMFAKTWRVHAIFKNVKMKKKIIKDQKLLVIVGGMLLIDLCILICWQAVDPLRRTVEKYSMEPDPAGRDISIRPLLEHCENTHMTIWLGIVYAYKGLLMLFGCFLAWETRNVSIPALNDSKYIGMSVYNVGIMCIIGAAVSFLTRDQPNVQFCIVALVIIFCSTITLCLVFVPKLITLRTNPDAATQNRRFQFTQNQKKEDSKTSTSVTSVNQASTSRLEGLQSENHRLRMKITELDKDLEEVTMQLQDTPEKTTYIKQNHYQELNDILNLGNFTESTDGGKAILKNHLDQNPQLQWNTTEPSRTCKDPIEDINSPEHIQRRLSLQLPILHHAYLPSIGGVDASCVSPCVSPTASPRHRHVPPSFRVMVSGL

Cn1c[n+]([C@@H]2O[C@H](COP(=O)(O)OP(=O)([O-])OP(=O)(O)OC[C@H]3O[C@@H](n4cnc5c(=O)[nH]c(N)nc54)[C@H](O)[C@@H]3O)[C@@H](O)[C@H]2O)c2nc(N)[nH]c(=O)c21 — result for “relative translation efficiency”: 1 ± 0.02 (capped luciferase mRNA; rabbit reticulocyte lysate; 1 h; reference: compound-capped mRNA).
`RDGAWFA` has an inhibition of 0% (peptide, human polyclonal IgM RF CLAU; concentration not given, 5 µg/mL mAb II-481 coated, added: RF at 50% max binding concentration).
`GABBR1 GABAB1b isoform, full length E423R (Homo sapiens)` — result for “cell surface expression”: 87% (GABBR2 (Homo sapiens, UniProt O75899); anti-Flag M1 on intact cells; reference: WT/WT heterodimer, higher = more surface expression).
With CCC(C)n1ncn(-c2ccc(N3CCN(c4ccc(OCC5COC(Cn6cncn6)(c6ccc(Cl)cc6Cl)O5)cc4)CC3)cc2)c1=O (stereo not drawn) the potency ratio was at least 10 fold (enzyme activity, inhibitor; rat kidney homogenate; 10 µM, added: 50 nM corticosterone; reference: rat over human enzyme).
`CIKVAVS` gave an inhibition of 0% (peptide, human polyclonal IgM RF WEAK; concentration not given, 5 µg/mL mAb II-481 coated, added: RF at 50% max binding concentration).
O=c1cc(-c2ccccc2OCc2ccc(-c3nccs3)cc2)ncn1C1CCCCC1O (stereo not drawn) — result for “change in baseline activity”: 75 ± 3.8 (CHRM1; allosteric agonist, IP1 accumulation; CHO-M1 cells; 10 µM, unit not given; reference: maximum ACh response).
With `NYLAWYQ` the inhibition was 40% (peptide, human polyclonal IgM RF MCC; concentration not given, 5 µg/mL mAb II-481 coated, added: RF at 50% max binding concentration).
CC[C@@H]([C@H](C)O)n1ncn(-c2ccc(N3CCN(c4ccc(OC[C@@H]5CO[C@@](Cn6cncn6)(c6ccc(F)cc6F)C5)cc4)CC3)cc2)c1=O gave a potency ratio of about 4 fold (enzyme activity, inhibitor; mouse kidney homogenate; 10 µM, added: 50 nM corticosterone; reference: mouse over human enzyme).
With `CARLSLSWRGLTLCPSK (68Ga-DOTA-labelled)` the uptake was 0.1 ± 0.03 SUV (mouse VAP-1; ex vivo biodistribution; peptide, wild-type mouse, B16 melanoma xenograft, small intestine; 60 min, added: 500-fold excess unlabelled DOTA-peptide).
Cn1cc(-c2ccc(COc3ccccc3-c3cc(=O)n(C4CCCCC4O)cn3)cc2)cn1 (stereo not drawn): “ΔpEC50 of ACh” 1.52 ± 0.14 log units (CHRM1; positive allosteric modulator, IP1 accumulation; CHO-M1 cells; 1 µM, 60 min, 37 °C, added: ACh; reference: ACh alone, higher = stronger potentiation).
The Vmax/Km of `B1 (UGT1A9)` is reported as 3040 µL/min/mg (COc1cc(-c2cc(=O)c3c(O)cc(O)cc3o2)ccc1O; steady-state kinetics; pH 7.4, 37 °C).
CCCCn1cc(-c2ccc(COc3ccccc3-c3cc(=O)n(C4CCCCC4O)cn3)cc2)cn1 (stereo not drawn): “ΔpEC50 of ACh” 2.01 ± 0.23 log units (CHRM1; positive allosteric modulator, IP1 accumulation; CHO-M1 cells; 10 µM, 60 min, 37 °C, added: ACh; reference: ACh alone, higher = stronger potentiation).
The inhibition of `YGIGVGW` is reported as 14% (peptide, human polyclonal IgM RF MCC; concentration not given, 5 µg/mL mAb II-481 coated, added: RF at 50% max binding concentration).
For CO[C@H]1[C@@H](O)[C@H]([n+]2cn(C)c3c(=O)[nH]c(N)nc32)O[C@@H]1COP(=O)([O-])OP(=O)(O)OP(=O)(O)OC[C@H]1O[C@@H](n2cnc3c(=O)[nH]c(N)nc32)[C@H](O)[C@@H]1O, “relative translation efficiency” read 1.6 (rabbit reticulocyte lysate; 1 h, luciferase mRNA capped with compound; reference: m7GpppG-capped mRNA).
CC(O)C(C)n1ncn(-c2ccc(N3CCN(c4ccc(OCC5COC(Cn6cncn6)(c6ccc(Cl)cc6Cl)O5)cc4)CC3)cc2)c1=O (stereo not drawn) has a potency ratio of at least 10 fold (enzyme activity, inhibitor; rat kidney homogenate; 10 µM, added: 50 nM corticosterone; reference: rat over human enzyme).
`B2 (FBXO5 zinc binding region)` has a Ki of over 80000 nM (APC/C (Homo sapiens); ubiquitination assay; apparent, without CDH1, added: UBE2S).
`GAGUUGAGUUGAGUUGAGUUGAGUUGAGUUGAGUUGAGUUGAGUUGAGUUGAGUU (ssRNA; single strand)` gave a Kd of 1 ± 0.5 nM (mtrB full length assumed T30S (Bacillus subtilis, UniProt P19466); filter binding; added: L-tryptophan 1 mM).
For `GSS(Octanoyl)FLSPEHQRVQQRKESKKPPAKLQPR (ghrelin; Octanoyl = CCCCCCCC(=O)*; sequence looked up)`, the remaining compound was 17.2 ± 4.9% (Liver carboxylesterase 1 (CES1, Homo sapiens, UniProt P23141); HPLC-UV; peptide; 1 mg/mL, 15 min, pH 7.4, 37 °C).
